{"data": "Measurements collected from several papers", "4'-phosphopantetheinyl transferase PptT": "4'-phosphopantetheinyl transferase PptT (Mycobacterium tuberculosis, UniProt O33336)", "note": "Protocols differ between the studies behind these lines. ± gives the spread as reported.", "sequence of UniProt O33336 (whole entry, looked up)": "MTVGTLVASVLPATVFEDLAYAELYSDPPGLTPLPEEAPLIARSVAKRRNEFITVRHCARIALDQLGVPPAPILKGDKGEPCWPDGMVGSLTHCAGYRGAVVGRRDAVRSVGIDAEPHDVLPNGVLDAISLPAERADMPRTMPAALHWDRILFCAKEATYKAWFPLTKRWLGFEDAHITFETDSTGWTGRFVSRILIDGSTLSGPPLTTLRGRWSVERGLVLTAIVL", "sequence of UniProt P21554 (whole entry, unmodified, looked up)": "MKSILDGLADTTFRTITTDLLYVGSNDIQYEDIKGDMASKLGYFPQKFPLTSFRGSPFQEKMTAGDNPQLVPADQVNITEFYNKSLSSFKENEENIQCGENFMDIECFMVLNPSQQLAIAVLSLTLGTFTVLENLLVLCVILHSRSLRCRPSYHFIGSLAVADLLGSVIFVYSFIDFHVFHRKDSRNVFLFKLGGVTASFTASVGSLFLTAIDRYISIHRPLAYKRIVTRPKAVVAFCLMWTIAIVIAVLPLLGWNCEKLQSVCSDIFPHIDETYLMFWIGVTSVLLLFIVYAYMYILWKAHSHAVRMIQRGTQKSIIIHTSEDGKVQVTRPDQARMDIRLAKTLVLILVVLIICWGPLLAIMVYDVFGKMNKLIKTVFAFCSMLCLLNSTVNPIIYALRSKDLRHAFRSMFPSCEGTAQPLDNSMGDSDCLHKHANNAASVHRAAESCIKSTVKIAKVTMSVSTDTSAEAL", "sequence of UniProt Q9JI35 (whole entry, looked up)": "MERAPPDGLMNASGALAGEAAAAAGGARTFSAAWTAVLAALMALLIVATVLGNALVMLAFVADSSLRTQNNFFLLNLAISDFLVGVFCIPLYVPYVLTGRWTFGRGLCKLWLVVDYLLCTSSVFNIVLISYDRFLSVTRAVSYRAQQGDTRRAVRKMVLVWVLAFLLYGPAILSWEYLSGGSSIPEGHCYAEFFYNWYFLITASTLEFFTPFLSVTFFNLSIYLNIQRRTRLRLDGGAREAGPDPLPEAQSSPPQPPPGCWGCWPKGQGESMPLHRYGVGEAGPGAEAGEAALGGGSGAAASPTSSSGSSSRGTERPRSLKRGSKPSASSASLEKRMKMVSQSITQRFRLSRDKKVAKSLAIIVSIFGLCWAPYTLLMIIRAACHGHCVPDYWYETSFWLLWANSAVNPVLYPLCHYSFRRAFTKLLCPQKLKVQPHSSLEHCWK", "sequence of UniProt P34972 (whole entry, unmodified, looked up)": "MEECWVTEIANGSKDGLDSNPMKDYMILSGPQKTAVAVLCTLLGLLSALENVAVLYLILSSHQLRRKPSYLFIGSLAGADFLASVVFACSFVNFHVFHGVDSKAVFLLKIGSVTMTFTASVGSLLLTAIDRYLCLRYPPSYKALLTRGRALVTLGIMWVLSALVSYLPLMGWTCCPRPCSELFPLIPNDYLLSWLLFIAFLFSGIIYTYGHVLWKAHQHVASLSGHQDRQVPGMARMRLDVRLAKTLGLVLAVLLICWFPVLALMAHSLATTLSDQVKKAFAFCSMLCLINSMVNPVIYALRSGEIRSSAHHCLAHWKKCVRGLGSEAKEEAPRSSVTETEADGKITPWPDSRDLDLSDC", "sequence of UniProt P41143 (whole entry, unmodified, looked up)": "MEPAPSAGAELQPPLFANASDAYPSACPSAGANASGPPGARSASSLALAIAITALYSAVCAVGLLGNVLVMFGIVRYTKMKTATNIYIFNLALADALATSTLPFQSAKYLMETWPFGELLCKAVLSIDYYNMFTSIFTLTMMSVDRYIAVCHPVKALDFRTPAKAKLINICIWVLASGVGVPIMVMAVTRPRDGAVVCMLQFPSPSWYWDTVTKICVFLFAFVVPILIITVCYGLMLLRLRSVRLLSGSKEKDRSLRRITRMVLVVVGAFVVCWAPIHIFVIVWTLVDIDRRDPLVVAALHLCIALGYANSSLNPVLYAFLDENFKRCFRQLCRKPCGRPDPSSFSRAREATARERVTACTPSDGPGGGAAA", "sequence of UniProt O60911 (whole entry, looked up)": "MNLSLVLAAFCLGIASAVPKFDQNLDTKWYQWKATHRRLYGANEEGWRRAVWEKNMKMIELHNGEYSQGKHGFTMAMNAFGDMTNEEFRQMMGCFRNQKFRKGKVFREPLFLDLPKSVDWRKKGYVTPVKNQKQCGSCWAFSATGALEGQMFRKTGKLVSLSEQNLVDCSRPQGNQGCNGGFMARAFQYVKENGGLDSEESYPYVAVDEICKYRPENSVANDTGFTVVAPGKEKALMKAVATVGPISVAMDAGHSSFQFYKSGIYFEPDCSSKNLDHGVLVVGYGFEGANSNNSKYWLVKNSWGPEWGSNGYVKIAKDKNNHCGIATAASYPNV"}
{"Compound": "CCCCCn1cc(C(=O)c2ccc3ccccc3c2)c2ccccc21", "target": "Cannabinoid receptor 1 (CNR1, Homo sapiens, UniProt P21554, F174A)", "test": "G protein activation, agonist, BRET", "quantity": "EC50", "result": "692 nM"}
{"Compound": "O=[N+]([O-])CC(c1ccco1)c1c(-c2ccccc2)[nH]c2ccccc12 (stereo not shown)", "target": "Cannabinoid receptor 1, with Gi1 (CNR1, Homo sapiens, UniProt P21554)", "test": "Gi1 dissociation, agonist, BRET", "system": "HEK293", "quantity": "EC50", "result": "280 ± 10 nM"}
{"Compound": "CCN(Cc1ccc2nc(C)[nH]c(=O)c2c1)c1ccc(C(=O)NC(CCC(=O)O)C(=O)O)s1 (stereo not shown)", "target": "4'-phosphopantetheinyl transferase PptT", "test": "enzyme activity, inhibitor, FP", "quantity": "IC50", "result": "53 nM"}
{"Compound": "CC(C)CC(C(=O)N1CC2(CC1C#N)C(=O)Nc1ccccc12)N(C)C(=O)c1cc2c(F)cc(F)c(F)c2[nH]1 (stereo not shown)", "target": "Cathepsin L2 (CTSV, Homo sapiens, UniProt O60911)", "test": "enzyme activity, inhibitor", "quantity": "IC50", "result": "> 100000 nM"}
{"Compound": "Cc1ccc2c(C(C[N+](=O)[O-])c3cccs3)c(-c3ccccc3)[nH]c2c1 (stereo not shown)", "target": "Cannabinoid receptor 1 (CNR1, Homo sapiens, UniProt P21554, L387A)", "test": "G protein activation, agonist, BRET", "quantity": "EC50", "result": "100 nM"}
{"Compound": "CC[C@H](C)[C@H](NC(=O)[C@@H]1CCCN1C(=O)[C@H](C)NC(=O)CNC(=O)[C@@H]1CCCN1C(=O)[C@H](CCC(=O)O)NC(=O)CN)C(=O)N[C@@H](CC(=O)O)C(=O)N[C@@H](Cc1ccc(O)cc1)C(=O)N[C@@H](CC(=O)O)C(=O)N[C@@H](CCC(=O)O)C(=O)N[C@@H](Cc1ccc(O)cc1)C(=O)NCC(=O)N[C@@H](CC(=O)O)C(=O)N[C@@H](CO)C(=O)N[C@@H](CO)C(=O)N[C@@H](CCC(=O)O)C(=O)N[C@@H](CCC(=O)O)C(=O)N[C@H](C(=O)NCC(=O)NCC(=O)N[C@@H](C)C(=O)N[C@@H](CCC(=O)O)C(=O)N[C@H](C(=O)N[C@@H](C)C(=O)N[C@@H](CCC(N)=O)C(=O)N1CCC[C@H]1C(=O)N[C@@H](CCCCN)C(=O)N[C@@H](CC(C)C)C(=O)N[C@@H](Cc1ccc(O)cc1)C(=O)N[C@@H](CCC(N)=O)C(=O)N[C@@H](CCCNC(=N)N)C(=O)NCC(=O)N[C@@H](CCC(=O)O)C(=O)NCC(=O)NCC(=O)N[C@@H](CC(N)=O)C(=O)NCC(=O)N[C@@H](CCSC)C(=O)N[C@@H](CCC(=O)O)C(=O)N1CCC[C@H]1C(=O)N[C@H](C(=O)N1CCC[C@H]1C(=O)N[C@@H](CCC(=O)O)C(=O)N[C@@H](CC(=O)O)C(=O)N[C@@H](Cc1ccc(O)cc1)C(=O)N[C@@H](CC(C)C)C(=O)N[C@@H](CCC(N)=O)C(=O)O)[C@@H](C)CC)C(C)C)C(C)C", "target": "Prothrombin, gamma-thrombin (F2, Homo sapiens, UniProt P00734)", "conditions": "pH 8", "quantity": "Ki", "result": "360 ± 21 nM"}
{"Compound": "CCCCCn1cc(C(=O)c2ccc3c(c2)CC(C)(C)C3)c2ccccc21", "target": "Cannabinoid receptor 2 (CNR2, Homo sapiens, UniProt P34972, L182I)", "test": "cAMP, agonist, BRET", "quantity": "EC50", "result": "52.5 nM"}
{"Compound": "CC(C)C[C@H](NC(=O)[C@H](CC(=O)O)NC(=O)[C@H](CCC(N)=O)NC(=O)[C@H](CC(N)=O)NC(=O)[C@H](CC(C)C)NC(=O)[C@@H](N)CCC(=O)O)C(=O)N[C@H]1CSSC[C@@H](C(=O)N[C@@H](CCCCN)C(=O)NCC(=O)N[C@@H](CO)C(=O)N[C@@H](CCCCNC(=O)CCCC[C@@H]2SC[C@@H]3NC(=O)N[C@@H]32)C(N)=O)NC(=O)[C@H](Cc2ccccc2)NC(=O)[C@H](Cc2ccc(O)cc2)NC(=O)[C@H](CC(=O)O)NC(=O)[C@H](C)NC(=O)[C@H](Cc2ccc(O)cc2)NC(=O)[C@H](CC(=O)O)NC1=O", "target": "anti-HA antibody 12CA5 (mouse)", "test": "biolayer interferometry", "conditions": "30 °C", "quantity": "Kd", "result": "< 1 nM"}
{"Compound": "CCN(CC)C(=O)c1ccc(C(c2cccc(O)c2)N2CC(C)N(Cc3ccccc3)CC2C)cc1 (stereo not shown)", "target": "Delta-type opioid receptor (OPRD1, Homo sapiens, UniProt P41143, N131S)", "quantity": "Ki", "result": "1.94 ± 0.69 nM"}
{"Compound": "C#CCN(Cc1ccc2nc(C)[nH]c(=O)c2c1)c1ccc(C(=O)NC(CCCC(=O)O)C(=O)O)cc1 (stereo not shown)", "target": "4'-phosphopantetheinyl transferase PptT", "test": "enzyme activity, inhibitor, FP", "quantity": "IC50", "result": "53 nM"}
{"Compound": "COc1ccccc1C(C[N+](=O)[O-])c1c(-c2ccccc2)[nH]c2ccccc12 (stereo not shown)", "target": "Cannabinoid receptor 1, with Gz (CNR1, Homo sapiens, UniProt P21554)", "test": "Gz dissociation, agonist, BRET", "system": "HEK293", "quantity": "EC50", "result": "480 ± 70 nM"}
{"Compound": "C#CCN(Cc1ccc2nc(C)[nH]c(=O)c2c1)c1ccc(C(=O)NC(CCC(=O)O)C(=O)O)s1 (stereo not shown)", "target": "4'-phosphopantetheinyl transferase PptT", "test": "enzyme activity, inhibitor, FP", "quantity": "IC50", "result": "49 nM"}
{"Compound": "CCN(CC)C(=O)[C@@H]1C=C2c3cccc4c3c(cn4C(=O)c3ccco3)C[C@H]2N(C)C1", "target": "Histamine H3 receptor (Cavia porcellus, UniProt Q9JI35)", "test": "ligand displacement, radioligand", "quantity": "Ki", "result": "> 10000 nM"}
{"Compound": "CCN(Cc1ccc2nc(C)[nH]c(=O)c2c1)c1ccc(C(=O)NC(C(=O)O)C(C)C)cc1 (stereo not shown)", "target": "4'-phosphopantetheinyl transferase PptT", "test": "enzyme activity, inhibitor, fluorescence polarization", "conditions": "enzyme 100 nM", "quantity": "IC50", "result": "2900 nM"}
{"Compound": "CCCCCCC1CCCC(=O)O1 (stereo not shown)", "target": "Carbonic anhydrase (Vibrio cholerae serotype O1, UniProt Q9KMP6)", "test": "enzyme activity, inhibitor, stopped-flow", "quantity": "Ki", "result": "38800 nM"}
{"Compound": "C#CCN(Cc1ccc2nc(C)[nH]c(=O)c2c1)c1ccc(C(=O)N[C@@H](CC(=O)NCC(=O)O)C(=O)O)cc1", "target": "4'-phosphopantetheinyl transferase PptT", "test": "enzyme activity, inhibitor, FP", "quantity": "IC50", "result": "59 nM"}
{"Compound": "CC[C@H](C)[C@H](NC(=O)[C@@H]1CCCN1C(=O)[C@H](CCC(=O)O)NC(=O)[C@H](CCSC)NC(=O)CNC(=O)[C@H](CC(N)=O)NC(=O)CNC(=O)CNC(=O)[C@H](CCC(=O)O)NC(=O)CNC(=O)[C@H](CCCNC(=N)N)NC(=O)[C@H](CCC(N)=O)NC(=O)[C@H](Cc1ccc(O)cc1)NC(=O)[C@H](CC(C)C)NC(=O)[C@H](CCCCN)NC(=O)[C@@H]1CCCN1C(=O)[C@H](CCC(N)=O)NC(=O)[C@H](C)NC(=O)[C@@H](NC(=O)[C@H](CCC(=O)O)NC(=O)[C@H](C)NC(=O)[C@H](CCC(=O)O)NC(=O)[C@@H](NC(=O)[C@@H]1CCCN1C(=O)[C@@H](N)CCCCN)C(C)C)C(C)C)C(=O)N1CCC[C@H]1C(=O)N[C@@H](CCC(=O)O)C(=O)N[C@@H](CC(=O)O)C(=O)N[C@@H](Cc1ccc(OS(=O)(=O)O)cc1)C(=O)N[C@@H](CC(C)C)C(=O)N[C@@H](CCC(N)=O)C(=O)O", "target": "Prothrombin (F2, Homo sapiens, UniProt P00734)", "test": "enzyme activity, inhibitor, absorbance", "conditions": "pH 8", "quantity": "Ki", "result": "0.00505 nM"}
{"Compound": "C#CCN(Cc1ccc2nc(CC)[nH]c(=O)c2c1)c1ccc(C(=O)NC(CCC(=O)O)C(=O)O)cc1 (stereo not shown)", "target": "4'-phosphopantetheinyl transferase PptT", "test": "enzyme activity, inhibitor, FP", "quantity": "IC50", "result": "53 nM"}
{"Compound": "CCCCCn1cc(C(=O)c2cccc3c2CC(C)(C)C3)c2ccccc21", "target": "Cannabinoid receptor 1 (CNR1, Homo sapiens, UniProt P21554)", "test": "Gαi1 activation, agonist, BRET", "quantity": "EC50", "result": "27.5 nM"}
